Experimental data of several laboratories.
Each line is one published result; not all experiments were run side by side. Values joined by “and” are separate records of one study, mostly repeats; a detail may differ. ± gives the spread as reported.

Compound | organism | test | system | conditions | scale | measurement | result
Cc1ccn2c(-c3csc(Nc4ccccn4)n3)c(C)nc2c1 | Mycobacterium bovis BCG | – | – | concentration not given | – | activity | inactive
CN[C@@H]1[C@H](O)[C@H](NC)[C@H]2O[C@]3(O)[C@H](O[C@@H]2[C@H]1O)O[C@H](C)C[C@H]3NC(=O)Cc1ccc(Cl)cn1 | Mycolicibacterium fortuitum | microbial growth | ATCC6841 | – | – | MIC | 50 µg/mL
COc1ccc(C(=O)N2CC(OC(=O)c3ccc(F)c(F)c3)CC2C(=O)OC2CCC3(C)C(CCC4(C)C3CC=C3C5CC(C)(C)CCC5(C(=O)NCc5ccccc5)CCC34C)C2(C)C)cc1OC (stereo not drawn) | Influenza A virus | viral replication | MDCK, A/WSN/1933 (H1N1) | 48 h | – | EC50 | 3.63 ± 0.38 µM
Cc1ccc2nc(C)c(C(=O)C(=O)NCc3ccccc3)n2c1 | Bacillus subtilis | microbial growth | ATCC6633 | 2 mM, 20 h | – | inhibition zone | 0 mm
O=C(Nc1ccccc1SSc1ccccc1NC(=O)c1ccccc1)c1ccccc1 | Influenza A virus | viral replication | MDCK, A/NWS/33 (H1N1) | – | baseline: CC50 over EC50 | selectivity index | 0.18 ± 0.035
CCCC/C=C/C(=O)N[C@@H](Cc1csc2ccccc12)C(=O)N[C@H]1COC(=O)[C@@H]2C[C@@H](C)CN2C(=O)[C@H](C)NC(=O)[C@@H]2CCCCN2C(=O)[C@@H]2CCCN2C1=O | human coronavirus 229E | – | Huh-7 | concentration not given, unit not given | baseline: DMSO | viral RNA release | 0.000424 and 0.000332 and 0.000303
Cc1cc(Oc2nc(N3CC[C@@H](c4ccncc4)C3)ncc2F)[nH]n1 | Mycobacterium tuberculosis | – | THP-1, H37Rv non-replicating | 0.09491 µM, day 4 plus 1 | – | normalised growth | 24.4% and 14.9%
CC1(C)[C@H](NC(=O)/C(=N\OCCN)c2nsc(N)n2)C(=O)N1OS(=O)(=O)O | Salmonella enterica Typhi | agar dilution | susceptible | – | – | MIC | 16 µg/mL
CC1(C)CCC2(C(=O)NCc3ccccc3)CCC3(C)C(=CCC4C5(C)CCC(OC(=O)C6CC(OC(=O)C7CC(O)C(O)C(O)C7)CN6C(=O)c6ccc(O)c(O)c6)C(C)(C)C5CCC43C)C2C1 (stereo not drawn) | Influenza A virus | viral replication | MDCK, A/WSN/1933 (H1N1) | 48 h | – | EC50 | 0.4 ± 0.27 µM
CN[C@@H]1[C@H](O)[C@H](NC)[C@H]2O[C@]3(O)[C@H](O[C@@H]2[C@H]1O)O[C@H](C)C[C@H]3NC(=O)Cc1cscn1 | Burkholderia cepacia | microbial growth, broth dilution | ATCC25416 | – | – | MIC | > 200 µg/mL
Cc1ccc(CNC(=O)Cc2c(C)nc3ccc(C)cn23)cc1 | Mycobacteroides chelonae | microbial growth | – | 72 h | – | MIC | > 50 µM
CC1(C)[C@H](NC(=O)/C(=N\OCC(=O)N2CCC(C(=O)O)C2)c2nsc(N)n2)C(=O)N1OS(=O)(=O)O (stereo partly drawn) | Salmonella enterica Typhi | agar dilution | susceptible | – | – | MIC | 4 µg/mL
Cc1ccc(NS(=O)(=O)c2c(C(=O)N3CCCCCC3)c(C)n(C)c2C)c(Cl)c1 | Fowlpox virus | viral infection | CEF | 1.235 µM | baseline: untreated | infection | 85.8% and 107% and 94.6%
Cc1ccc(N2CC3CC(C2)N3C)cc1C(=O)NC1(c2ccc3c4c(cccc24)C(=O)N3C)CC1 | human coronavirus 229E | viral replication | Huh-7 | 0.1875 µM | – | inhibition | 0%
Cc1ccc(-c2nc3ccc(C)cn3c2C(=O)C(=O)NCc2ccc(N(C)C)cc2)cc1 | Micrococcus luteus | microbial growth | ATCC10240 | 2 mM, 20 h | – | inhibition zone | 0 mm
CC1(C)CCC2(C(=O)NCc3ccccc3)CCC3(C)C(=CCC4C5(C)CCC(OC(=O)C6CC(OC(=O)c7ccc(Cl)c(Cl)c7)CN6C(=O)c6ccc(Cl)c(Cl)c6)C(C)(C)C5CCC43C)C2C1 (stereo not drawn) | Influenza A virus | viral replication | MDCK, A/WSN/1933 (H1N1) | 48 h | – | EC50 | > 20 µM
CC1(C)[C@H](NC(=O)/C(=N\OC2(C(=O)O)CCCCC2)c2csc(N)n2)C(=O)N1OS(=O)(=O)O | Salmonella enterica Typhi | agar dilution | susceptible | – | – | MIC | 4 µg/mL
CC(C)CC(C(=O)N1CC2(CC1C#N)C(=O)Nc1ccccc12)N(C)C(=O)c1cc2c(F)cc(F)c(F)c2[nH]1 (stereo not drawn) | human coronavirus 229E | viral replication | MRC-5 | 0.00031 µM | – | inhibition | 2.1%
Cc1ccc2nc(C)c(CC(=O)NCc3ccc(N(C)C)cc3)n2c1 | Bacillus subtilis | microbial growth | ATCC6633 | 2 mM, 20 h | – | inhibition zone | 0 mm
Oc1ccc(Br)cc1-c1nc2cc(C(F)(F)F)ccc2s1 | human coronavirus 229E | – | Huh-7 | concentration not given, unit not given | baseline: DMSO | genomic RNA level | 0.86 and 0.597 and 0.986
O=C(CCN(CCC(=O)N[C@@H](Cc1c[nH]c2ccccc12)C(=O)O)C(=O)CCN(CCC(=O)N(CCC(=O)N[C@@H](Cc1c[nH]c2ccccc12)C(=O)O)CCC(=O)N[C@@H](Cc1c[nH]c2ccccc12)C(=O)O)C(=O)c1cc(C(=O)N(CCC(=O)N(CCC(=O)N[C@@H](Cc2c[nH]c3ccccc23)C(=O)O)CCC(=O)N[C@@H](Cc2c[nH]c3ccccc23)C(=O)O)CCC(=O)N(CCC(=O)N[C@@H](Cc2c[nH]c3ccccc23)C(=O)O)CCC(=O)N[C@@H](Cc2c[nH]c3ccccc23)C(=O)O)cc(C(=O)N(CCC(=O)N(CCC(=O)N[C@@H](Cc2c[nH]c3ccccc23)C(=O)O)CCC(=O)N[C@@H](Cc2c[nH]c3ccccc23)C(=O)O)CCC(=O)N(CCC(=O)N[C@@H](Cc2c[nH]c3ccccc23)C(=O)O)CCC(=O)N[C@@H](Cc2c[nH]c3ccccc23)C(=O)O)c1)N[C@@H](Cc1c[nH]c2ccccc12)C(=O)O | human coronavirus 229E | viral replication | – | – | – | EC50 | 45 ± 0.3 µM
CC1OC(OC2C(CO)OC(OC3CCC4(C)C(CCC5(C)C4CC=C4C6CC(C)(C)CCC6(C(=O)NCc6ccccc6)CCC45C)C3(C)C)C(OC3OC(C)C(O)C(O)C3O)C2O)C(O)C(O)C1O (stereo not drawn) | Influenza A virus | viral replication | MDCK, A/WSN/1933 (H1N1) | 48 h | – | EC50 | 35.6 ± 1.91 µM
CCc1ccn2c(C(=O)NCc3ccc(C)cc3)c(C)nc2c1 | Mycobacteroides chelonae | microbial growth | – | 72 h | – | MIC | > 50 µM
CN[C@@H]1[C@H](O)[C@H](NC)[C@H]2O[C@]3(O)[C@H](O[C@@H]2[C@H]1O)O[C@H](C)C[C@H]3NC(=O)Cc1ccccn1 | Mycolicibacterium fortuitum | microbial growth | ATCC6841 | – | – | MIC | 25 to 50 µg/mL
Cc1ccc2nc(C)c(C(=O)C(=O)N(C)C)n2c1 | Micrococcus luteus | microbial growth | ATCC10240 | 2 mM, 20 h | – | inhibition zone | 0 mm
C#CCO/N=C(\C(=O)N[C@@H]1C(=O)N(OS(=O)(=O)O)C1(C)C)c1nsc(N)n1 | Salmonella enterica Typhi | agar dilution | susceptible | – | – | MIC | 8 µg/mL
C#CCNC(=O)C[C@H](Cc1ccc(F)cc1)NC(=O)[C@@H](Cc1ccc(Cl)cc1Cl)NC(=O)[C@H](N)Cc1ccccc1C#N | human coronavirus 229E | cytopathic effect | Huh-7 cells | – | – | EC50 | 2.5 µM

Excerpt of the above:
Compound | organism | test | system | conditions | scale | measurement | result
CC1(C)[C@H](NC(=O)/C(=N\OCC(=O)N2CCC(C(=O)O)C2)c2nsc(N)n2)C(=O)N1OS(=O)(=O)O (stereo partly drawn) | Salmonella enterica Typhi | agar dilution | susceptible | – | – | MIC | 4 µg/mL
COc1ccc(C(=O)N2CC(OC(=O)c3ccc(F)c(F)c3)CC2C(=O)OC2CCC3(C)C(CCC4(C)C3CC=C3C5CC(C)(C)CCC5(C(=O)NCc5ccccc5)CCC34C)C2(C)C)cc1OC (stereo not drawn) | Influenza A virus | viral replication | MDCK, A/WSN/1933 (H1N1) | 48 h | – | EC50 | 3.63 ± 0.38 µM
CC(C)CC(C(=O)N1CC2(CC1C#N)C(=O)Nc1ccccc12)N(C)C(=O)c1cc2c(F)cc(F)c(F)c2[nH]1 (stereo not drawn) | human coronavirus 229E | viral replication | MRC-5 | 0.00031 µM | – | inhibition | 2.1%
CCc1ccn2c(C(=O)NCc3ccc(C)cc3)c(C)nc2c1 | Mycobacteroides chelonae | microbial growth | – | 72 h | – | MIC | > 50 µM
